Assay results from different studies.
Every numbered part comes from another study and shows a few of its results, in no order. Changes are numbered by the printed parent chain.

Set 1 — technique: RNA Bind-n-Seq; molecule type: RNA; medium: in vitro; concentration: 365 nM; relative to: no-protein control; reading: higher = stronger binding
Target: RNA binding protein fox-1 homolog 2, RRM domain, GST-SBP tag (RBFOX2, Homo sapiens, UniProt O43251-10, residues 100-194)
Notes: natural RNA segment, single round, ends assumed
Target sequence (chain): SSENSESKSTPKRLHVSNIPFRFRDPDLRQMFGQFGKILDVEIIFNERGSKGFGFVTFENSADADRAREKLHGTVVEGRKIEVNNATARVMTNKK
Sequence	RBNS enrichment (R)
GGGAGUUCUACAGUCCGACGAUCAGGGUAUACUUAGCACCACACCACACAGCGCCUAGACCCAGGCAUUUUACUGGGGUGAUUCGGCUGUUGUCUUUGUGAAAUCCGGGGAAACAGAUCACUGAAAUUCAAAGUGGAAUUCUCGGGUGCCAA	0.327
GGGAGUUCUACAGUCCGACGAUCUGUGGAGUGUAUUAGCAUUCAUCUCUCAUAGACAUCAUGUCACAAAAGACAAUGUUAGUAAACUACAGGGAAGCACUGGAAGGGUAAAGCUCAGGUUAAUACAAGCUGAUUGGAAUUCUCGGGUGCCAA	0.258
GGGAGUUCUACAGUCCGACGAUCUUCCGGAUAAUUUUAUAUAUCAAACAUACAGGAUGGAUACAUAGUUGGCAACAGUCUACCUUAUUUAAAGCUUCUACUGGGAUAAACCUCAAUUCCUUUAUUCAGGAAAGUGGAAUUCUCGGGUGCCAA	0.525
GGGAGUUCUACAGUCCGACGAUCCAGAUUCGUCUUCUGAGAGCUUGAAGCAACCCAUGAUUUGUCCCUCCACUGCUCUUCACUGGGUUCACUUCCAAGGAGACUAAUGGCUCUAUUGUAAAAAUUGCUCUUAAUGGAAUUCUCGGGUGCCAA	0.285
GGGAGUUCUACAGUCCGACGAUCGCGUCUGCCUGGCAGUGGGCCAUGAACUGAGGGGUCUCUGUGUAGAGUAGAAGCUUCCUGUGCCUCCGGUUGCCAGGAGACAGCCUGUGCAGUUAAAUGGACCUAGAUUUUGGAAUUCUCGGGUGCCAA	3.57
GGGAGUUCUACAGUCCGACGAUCAUAGUGACAUCUGGGACCCCAGGCCUCUGAAGCAUUUGCAGCCUCCUCAGGAGGGUGAGGGCCAUCUUAAUGCAGUGGUAAGGGACUGGUGAUCAUGGCUUCUCUAGCUGUGGAAUUCUCGGGUGCCAA	0.356
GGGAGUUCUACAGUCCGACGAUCCCCUGAUCUGGGCCUUCCUGUCCCAGGGCCUAUGGGCAACUGCGUUGAAAGGACGUUCGCCAAGGGCCGUGUGUAAAUACGAACUGCGCCAUGGAGAGGAGAGGCACUGCUGGAAUUCUCGGGUGCCAA	0.276
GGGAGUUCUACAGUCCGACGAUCGUGAAUGCUAUCCUCAAGGCCCUGCCCCAGUGAGCCCCCCUGGGCGCCUCAGUGGGCAUCCUGGCCUCGGCUCCUUCUGCCUGUGUGAGCAUCUGUGCACCCACUCUUCAUGGAAUUCUCGGGUGCCAA	0.851
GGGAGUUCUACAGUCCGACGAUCAGCCUGGCAUGCCAGGUCCUCAGACCCUAUGUUCUAUCUCAGCCAGGCCCACUCAGGAUGCCCAUGCCCAGGGCAGCAGGCUUCUGGGGUUCAGAAUUGUAGCCUCAGCCUGGAAUUCUCGGGUGCCAA	1.55
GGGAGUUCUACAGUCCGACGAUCGGCCGCCGUGGGUGUGCGUGUGUGCGACUCAGAAUGUGGGUGGUGGCGCCCUCAGAGACCCUGGCAUUGGCUGAGCCAAUGUUGGGCCUUCUGAAAAGAAGCCCAGGGGAUGGAAUUCUCGGGUGCCAA	0.784
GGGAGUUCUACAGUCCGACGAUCUACAGUUGAGUGGGAGUAAACAAAAAGAUAAACAUGCGUGUUAAUGGCUGUUCGAGAGAAAUCGGAAUAAAAGCCUAAACAGGAACAACUUCAUCACAGUGUUGAUGUUGUGGAAUUCUCGGGUGCCAA	0.408
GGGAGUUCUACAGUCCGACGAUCGAAGACUCCAGGACAGGACAGGCAAAUUCAUGGUAUGUAUGCAGUUGCUGCUCCUGCUUCACCUGUGGCAGACAUCGCUAAUCGAUCACAGCACUCUAUCUCUCAGAGUCUGGAAUUCUCGGGUGCCAA	0.306

Set 2 — technique: protein-binding microarray; molecule type: double-stranded DNA, one strand shown; medium: in vitro; concentration: 940 nM top; notes: 60-bp whole probe; together with: salmon DNA 0.4 mg/ml; relative to: random background probes; reading: higher = stronger binding; shared flanks, not repeated: GCCTAGCAC … GTCTTGATTCGCTTGACGCTGCTG
Target: Interferon regulatory factor 5, full length, phosphomimetic (IRF5, Homo sapiens, UniProt Q13568-2, residues 1-514, S451D/S453D/S456D/S462D)
Sequence	fitted relative affinity
TCAGATTTCGGGTTTCGATTAGTGCTA	6.05 z-score
TCCATTTTCTAAATGCCCTAGTGCTAG	0.404 z-score
TTAGATATCGGGTATCGAGTAGTGCTA	1.31 z-score
TCAACTCTGAACCTTGGACTGTGCTAG	-0.399 z-score
TTAGATTTCGGGCATCGATTAGTGCTA	0.841 z-score
CTAGTAGCCTAAGGCTACCGGTGCTAG	-0.671 z-score
TCACCTCTCTTTCCAACACTGTGCTAG	1.81 z-score
TTAGATTTCAGGTCCGATTAGTGCTAG	0.331 z-score
GACGGACTGGCCACTGGGGACGTGCTA	-0.73 z-score
GACGATTCCAGTTTCGCGACGTGCTAG	1.53 z-score
TGCTTCCTCTTTCTCTGCTAGTGCTAG	1.96 z-score
TTAGAACTGAGTTTCGAGTAGTGCTAG	3.38 z-score
TCAATCCTATATCTGAAACTGTGCTAG	0.55 z-score
TAAGGTTTCCTACTGCTTTAGTGCTAG	0.725 z-score

Set 3 — target: CCND3, cyclin fold, Cln2 fusion (human); technique: yeast growth competition, sequencing; medium: yeast; notes: weak parent motif; relative to: not given; reading: higher = stronger binding
Starting sequence: SCAPER docking peptide (human); SNARRSLNFGGST
Change	normalised enrichment score
R4L	0.00997
N8C	0.0679
S12H	0.144
F9H	0.0924
S6A	0.237
S12W	0.0958
N8Y	0.121
N8L	0.0696
S6E	0.0619
S12Y	0.138
S12D	0.153
L7P	0.108

Other studies, line by line
Substance	target	test	test system	setting	scale	measurement	result
PhoQ, residues 284 288 289 292 302 303 AGHLVA	PhoP, residues 12 14 15 18 19 LHHVQ (Escherichia coli, UniProt P23836)	Sort-seq, refers to: YFP reporter	E. coli	PhoQ-PhoP variant library, together with: 10 µM Mg2+	relative to: high Mg2+ state, higher = stronger signaling	fold induction	0.329

Some of these lines once more (set 2):
Sequence	fitted relative affinity
CTAGTAGCCTAAGGCTACCGGTGCTAG	-0.671 z-score
TTAGATTTCGGGCATCGATTAGTGCTA	0.841 z-score
TGCTTCCTCTTTCTCTGCTAGTGCTAG	1.96 z-score
TCACCTCTCTTTCCAACACTGTGCTAG	1.81 z-score
TAAGGTTTCCTACTGCTTTAGTGCTAG	0.725 z-score
TCAATCCTATATCTGAAACTGTGCTAG	0.55 z-score
